Results gathered from unrelated publications.
Every numbered part comes from another study and shows a few of its results, in no order. Several values in a cell are separate wells, animals, samples, runs or records.

Series 1
Target: Replicase polyprotein 1ab, nsp13 helicase (rep, Severe acute respiratory syndrome coronavirus 2, UniProt P0DTD1)
Mode: inhibitor
Concentration: 20 µM
Endpoint: inhibition
OCc1ccc(O[C@@H]2O[C@H](CO)[C@@H](O)[C@H](O)[C@H]2O)cc1: -0.51%
CC[C@]1(O)C[C@H]2CN(CCc3c([nH]c4ccccc34)[C@@](C(=O)OC)(c3cc4c(cc3OC)N(C=O)[C@H]3[C@@](O)(C(=O)OC)[C@H](OC(C)=O)[C@]5(CC)C=CCN6CC[C@]43[C@@H]65)C2)C1: 5.37%
CN1CCCC(CN2c3ccccc3Sc3ccccc32)C1 (stereo not shown): 8.14%
CN1CCN(c2ccc(C(=O)Nc3n[nH]c4ccc(Cc5cc(F)cc(F)c5)cc34)c(NC3CCOCC3)c2)CC1: 5.87%
CCN(CC)Cc1nccn1-c1ccc([N+](=O)[O-])cc1C(=O)c1ccccc1Cl: 1.65%
C=C(C)[C@@H]1CC[C@]2(C(=O)O)CC[C@]3(C)[C@H](CC[C@@H]4[C@@]5(C)CC[C@H](O)C(C)(C)[C@@H]5CC[C@]43C)[C@@H]12: 3.14%
O=C(Cc1ccccc1)Nc1nc2ccc(Cl)cc2c2nc(-c3ccco3)nn12: 4.53%
C/C(=C\c1csc(C)n1)[C@@H]1C[C@@H]2O[C@]2(C)CCC[C@H](C)[C@H](O)[C@@H](C)C(=O)C(C)(C)[C@@H](O)CC(=O)N1: 3.01%

Series 2
Target: Replicase polyprotein 1ab, main protease (rep, Severe acute respiratory syndrome coronavirus 2, UniProt P0DTD1)
Effect on: enzyme activity
Mode: inhibitor
Concentration: 20 µM
Setting: hit confirmation, with DTT
Endpoint: inhibition
O=C(O)c1cc(O)c(O)c(O)c1: 2.5%
S=C(S)N1CCCC1: -11.3%
Nc1ccc2cc3ccc(N)cc3nc2c1: 20.4%

Series 3
Cell line: HEK-293T/ACE2
Concentration: concentration not given
Time: 16 (unit not given)
Relative to: vehicle
Endpoint: viability
C[C@H](O)C(=O)Nc1c(I)c(C(=O)NC(CO)CO)c(I)c(C(=O)NC(CO)CO)c1I: 104%
N#C[C@@H]1C[C@@H]2C[C@@H]2N1C(=O)[C@@H](N)C12CC3CC(CC(O)(C3)C1)C2: 104%
CNC(=O)c1cc(Oc2ccc(NC(=O)Nc3ccc(Cl)c(C(F)(F)F)c3)cc2)ccn1: 88.2% and 93.4%
CC(C)(Sc1cc(C(C)(C)C)c(O)c(C(C)(C)C)c1)Sc1cc(C(C)(C)C)c(O)c(C(C)(C)C)c1: 101%

Single results of other studies
CC[C@H](C)[C@H](NC(=O)[C@H](CC(C)C)NC(=O)[C@H](Cc1c[nH]c2ccccc12)NC(=O)[C@H](CCC(N)=O)NC(=O)[C@@H](NC(=O)[C@H](Cc1ccccc1)NC(=O)[C@H](C)NC(=O)[C@H](CCCCNC(=O)COCCOCCNC(=O)COCCOCCNC(=O)CC[C@H](NC(=O)CCCCCCCCCCCCCCCCCCC(=O)O)C(=O)O)NC(=O)[C@H](CCC(N)=O)NC(=O)[C@H](C)NC(=O)[C@@H](NC(=O)[C@H](CCCCN)NC(=O)[C@H](CC(=O)O)NC(=O)[C@H](CC(C)C)NC(=O)C(C)(C)NC(=O)[C@@H](NC(=O)[C@H](CO)NC(=O)[C@H](Cc1ccc(O)cc1)NC(=O)[C@H](CC(=O)O)NC(=O)[C@H](CO)NC(=O)[C@@H](NC(=O)[C@H](Cc1ccccc1)NC(=O)[C@@H](NC(=O)CNC(=O)[C@H](CCC(=O)O)NC(=O)C(C)(C)NC(=O)[C@@H](N)Cc1ccc(O)cc1)[C@@H](C)O)[C@@H](C)O)[C@@H](C)CC)[C@@H](C)CC)C(C)C)C(=O)N[C@@H](C)C(=O)NCC(=O)NCC(=O)N1CCC[C@H]1C(=O)N[C@@H](CO)C(=O)N[C@@H](CO)C(=O)NCC(=O)N[C@@H](C)C(=O)N1CCC[C@H]1C(=O)N1CCC[C@H]1C(=O)N1CCC[C@H]1C(=O)N[C@@H](CO)C(N)=O  treatment-boosted ADA positive subjects (healthy subjects, single ascending dose; 0.25 mg, titre increase ≥4-fold): 0%
